Assay results pooled from the literature.
Compare with care: the assays were run in different laboratories.

Compound	test	system	conditions	scale	quantity	result
CC[C@H](C)CCCCC(=O)N[C@@H](CCN)C(=O)N[C@H](C(=O)N[C@@H](CCN)C(=O)N[C@H]1CCNC(=O)[C@H]([C@@H](C)O)NC(=O)[C@H](CCN)NC(=O)[C@H](CCN)NC(=O)[C@H](CC(C)C)NC(=O)[C@@H](Cc2ccccc2)NC(=O)[C@H](CCN)NC1=O)[C@@H](C)O		critically ill patients, non-AKI, plasma	intravenous, 150 mg/day, median		Cmax steady state	6600 ng/mL
OCc1ncc2n1-c1ccc(Cl)cc1C(c1ccccc1F)=NC2		healthy volunteers, plasma	dose not given, added: momelotinib	relative to: with momelotinib over alone	Cmax geometric mean ratio	86%
CCCCCOc1ccc(-c2ccc(-c3ccc(C(=O)N[C@H]4C[C@@H](O)[C@@H](OCC[N+](C)(C)C)NC(=O)[C@@H]5[C@@H](O)[C@@H](C)CN5C(=O)[C@H]([C@@H](C)O)NC(=O)[C@H]([C@H](O)[C@@H](O)c5ccc(O)cc5)NC(=O)[C@@H]5C[C@@H](O)CN5C(=O)[C@H]([C@@H](C)O)NC4=O)cc3)cc2)cc1		adult patients not in ICU, plasma	intravenous, 400 mg loading dose, after first dose, arithmetic mean		Cmax	18600 ng/mL
C[C@]1(CO)Cc2ncn(-c3ccc(C#N)c(Cl)c3)c2C(=O)O1		healthy Japanese adults, plasma	3 mg once daily, multiple dose		Cmax at steady state	197 nM
CC[C@H](C)[C@H](NC(=O)[C@H](Cc1ccccc1)NC(=O)[C@H](CCC(=O)O)NC(=O)[C@H](CCCCNC(=O)COCCOCCNC(=O)COCCOCCNC(=O)CC[C@H](NC(=O)CCCCCCCCCCCCCCCCC(=O)O)C(=O)O)NC(=O)[C@H](C)NC(=O)[C@H](C)NC(=O)[C@H](CCC(N)=O)NC(=O)CNC(=O)[C@H](CCC(=O)O)NC(=O)[C@H](CC(C)C)NC(=O)[C@H](Cc1ccc(O)cc1)NC(=O)[C@H](CO)NC(=O)[C@H](CO)NC(=O)[C@@H](NC(=O)[C@H](CC(=O)O)NC(=O)[C@H](CO)NC(=O)[C@@H](NC(=O)[C@H](Cc1ccccc1)NC(=O)[C@@H](NC(=O)CNC(=O)[C@H](CCC(=O)O)NC(=O)C(C)(C)NC(=O)[C@@H](N)Cc1cnc[nH]1)[C@@H](C)O)[C@@H](C)O)C(C)C)C(=O)N[C@@H](C)C(=O)N[C@@H](Cc1c[nH]c2ccccc12)C(=O)N[C@@H](CC(C)C)C(=O)N[C@H](C(=O)N[C@@H](CCCNC(=N)N)C(=O)NCC(=O)N[C@@H](CCCNC(=N)N)C(=O)NCC(=O)O)C(C)C		healthy men and women	oral, 14 mg once daily, with SNAC, geometric mean		Cmax at steady state	28.4 nM
Cc1ncc2n1-c1ccc(Cl)cc1C(c1ccccc1F)=NC2		healthy volunteers, plasma	oral, 5 mg single dose, day 1, given alone		Cmax	18 ng/mL
Cn1ncc(-c2nc(N[C@H]3CC[C@H](N)CC3)ncc2Cl)c1CC1CC1	HPLC-MS/MS	patients, plasma	oral, 11 mg, day 5		Cmax	52.3 ng/mL
O[C@H]1CCCN[C@@H]1CCCn1cnc2c(Cl)c(Cl)ccc21		healthy CYP2D6 intermediate metabolizers, plasma	oral, 150 mg multiple doses		Cmax at steady state	351 ng/mL

Repeated from above:
Compound	test	system	conditions	scale	quantity	result
CCCCCOc1ccc(-c2ccc(-c3ccc(C(=O)N[C@H]4C[C@@H](O)[C@@H](OCC[N+](C)(C)C)NC(=O)[C@@H]5[C@@H](O)[C@@H](C)CN5C(=O)[C@H]([C@@H](C)O)NC(=O)[C@H]([C@H](O)[C@@H](O)c5ccc(O)cc5)NC(=O)[C@@H]5C[C@@H](O)CN5C(=O)[C@H]([C@@H](C)O)NC4=O)cc3)cc2)cc1		adult patients not in ICU, plasma	intravenous, 400 mg loading dose, after first dose, arithmetic mean		Cmax	18600 ng/mL
